{"data": "Results of several laboratories", "note": "Numbered parts are unrelated; each lists some results of a single study. Positions count from the first letter of the parent shown."}
{"data": "Sample 1", "target": "Histone acetyltransferase KAT6A, both winged helices, GST fusion (KAT6A, Homo sapiens, UniProt Q92794, residues 1-181)", "technique": "protein binding microarray", "molecule type": "double-stranded DNA, one strand shown", "medium": "in vitro", "concentration": "not given", "notes": "8-mer, flanks averaged, mean of 2 arrays, mostly near background", "relative to": "not given", "direction": "higher = stronger binding", "Construct (chain)": "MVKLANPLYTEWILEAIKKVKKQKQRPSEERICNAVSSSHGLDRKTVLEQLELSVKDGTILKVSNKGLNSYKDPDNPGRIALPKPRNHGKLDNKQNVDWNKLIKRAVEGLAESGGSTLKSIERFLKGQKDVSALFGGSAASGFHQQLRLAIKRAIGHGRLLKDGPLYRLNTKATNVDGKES"}
{"Strand": "GTACCCAA", "E-score": -0.151}
{"Strand": "GTCTGCAA", "E-score": -0.0696}
{"Strand": "AATCCTAA", "E-score": -0.0643}
{"Strand": "CATCACAA", "E-score": -0.0279}
{"Strand": "TTAGAAAA", "E-score": -0.199}
{"Strand": "CTACCATC", "E-score": -0.0667}
{"data": "Sample 2", "target": "RING finger protein unkempt homolog, zinc fingers 1-6, GST-SBP tag (UNK, Homo sapiens, UniProt Q9C0B0, residues 30-357)", "technique": "RNA Bind-n-Seq", "molecule type": "RNA", "medium": "in vitro", "concentration": "not given", "notes": "RNA with constant flanks, ends assumed", "relative to": "input RNA pool", "direction": "higher = stronger binding", "UniProt Q9C0B0, sequence (30-357, looked up)": "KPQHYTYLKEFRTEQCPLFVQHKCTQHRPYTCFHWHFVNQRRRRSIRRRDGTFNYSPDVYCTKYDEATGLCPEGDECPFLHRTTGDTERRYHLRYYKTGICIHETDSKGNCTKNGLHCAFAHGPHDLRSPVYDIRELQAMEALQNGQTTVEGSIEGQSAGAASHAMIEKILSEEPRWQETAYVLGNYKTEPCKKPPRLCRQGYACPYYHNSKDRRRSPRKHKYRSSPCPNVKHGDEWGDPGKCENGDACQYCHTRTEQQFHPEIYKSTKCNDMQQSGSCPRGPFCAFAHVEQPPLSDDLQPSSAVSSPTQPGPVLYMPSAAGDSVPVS"}
{"Strand": "GGGAGUUCUACAGUCCGACGAUCAGCUCUCCCUGUGCUAACUGCCUGCACCUUGGACAGAGCGGGUGCGCAAAUCAGAAGGAUCCGUUGGGACCUGCCUUGGCGACCCCAUGGCAUCCCCCAGAACCGUAACUAUUGUGGCCCCAACAGAGGAUUGAGCAUCA", "bound/input enrichment [ratio]": 0.107}
{"Strand": "GGGAGUUCUACAGUCCGACGAUCACAGAUGAAGCUGACCUGGUUCUUGCAAAAGAAGCUAAUGUGAAAUGUCCACAAAUUGUGACCGCAUUUUAUGAAGAGAGACUGACAUGGCAUGCAUAUCCUGAGGAUGCGGAAAACAAACAACAGAGGAUUGAGCAUCA", "bound/input enrichment [ratio]": 0.237}
{"Strand": "GGGAGUUCUACAGUCCGACGAUCUUAAUAAUAGGAAAAGGAGGUGAAACCAUAAAAAGCAUAAGCCAGCAGUCUGGUGCAAGAACCGAACUUCAGAGAAAUCCUCCACCAAAUGCAGAUCCUAAUAUGAAGUUAUUUACAAUUCAACAGAGGAUUGAGCAUCA", "bound/input enrichment [ratio]": 0.271}
{"Strand": "GGGAGUUCUACAGUCCGACGAUCAUGUAUGUCUCCAUUCCUGUCUAUCUGUCUGAGUGCCUCAUUUUGUAAUCAUGACAAUCCUACCGAACCUUAGAUGGAAAUGAGUGACUAAGGCCUAGGGGUGUCUGUUUAGGAGUGAAUCAACAGAGGAUUGAGCAUCA", "bound/input enrichment [ratio]": 0.395}
{"data": "Sample 3", "target": "CCNB2, cyclin fold, Cln2 fusion (human)", "technique": "yeast growth competition, sequencing", "medium": "yeast", "notes": "weak parent motif", "relative to": "not given", "direction": "higher = stronger binding", "starting sequence": "CDC25A docking peptide (human); PPHRRRLLFACSP"}
{"Substitution": "L7Y", "normalised enrichment score": 0.696}
{"Substitution": "C11K", "normalised enrichment score": 0.00878}
{"Substitution": "R4W", "normalised enrichment score": 0.333}
{"Substitution": "R4K", "normalised enrichment score": 0.818}
{"data": "Single results of other studies"}
{"Substance": "PhoQ, residues 284 288 289 292 302 303 GANMMA", "target": "PhoP, residues 12 14 15 18 19 DLLYY (Escherichia coli, UniProt P23836)", "test": "Sort-seq, refers to: YFP reporter", "test system": "E. coli", "conditions": "PhoQ-PhoP variant library, together with: 10 µM Mg2+", "scale": "relative to: high Mg2+ state, higher = stronger signaling", "quantity": "fold induction", "result": 3.05}
{"note": "Repeated from above (sample 3):"}
{"Substitution": "R4W", "normalised enrichment score": 0.333}
